Measurements of several laboratories.
Compare with care: the assays were run in different laboratories. Values joined by “and” are separate records of one study, mostly repeats; a detail may differ. Numbers after ± are the reported error.

Compound | test | system | conditions | scale | measurement | value
Cc1noc(NS(=O)(=O)c2ccc(N=NN(O)c3ccccc3)cc2)c1C | carrageenan-induced paw edema | Wistar rat | oral, 100 mg/kg, 2 h after carrageenan, together with: carrageenan 1% subplantar | higher = more edema | paw edema volume | 5.7 ± 0.81 a.u.
COc1nc(NCc2cn(-c3ccc(C(=O)Nc4ccc([N+](=O)[O-])cc4)cc3)nn2)nc(OC)n1 | cell viability, MTT | normal colonocytes, rat | 72 h |  | IC50 | 65 ± 10.5 nM
COc1ccc(-c2cncc(N[C@@H](C)c3cccc(NC(=O)c4cncc(C)c4)c3)n2)cc1OC | refers to: rno-miR-362-3p | rat SU5416/hypoxia model, lung | dose not given | reference: SU5416/hypoxia vehicle | fold change | 0.619
CO[C@H]1CC[C@H](N2C(=O)CNc3ncc(-c4ccc(C(C)(C)O)nc4)nc32)CC1 | flow cytometry | stimulated B cells, human, blood | 30 mg single dose, 24 h, mean | reference: baseline | pS6RP change from baseline | 8.6%
COc1cc(/C=C/C(=O)N2CCC=CC2=O)cc(OC)c1OC | qRT-PCR, refers to: CIAP | nude mouse, 468 xenograft, tumour | 15 mg/kg, 21 days, unit not given | reference: β-actin, vehicle | mRNA level | 0.498
c1ccc(-c2n[nH]cc2-c2ccnc3ccccc23)nc1 | kinase binding, competitor, MIB/MS competition, refers to: CAK1 | Candida albicans cell lysate | 100 nM | reference: DMSO | log2 fold change | 1.3
Cc1cn(-c2ccc3n(c2=O)CCN([C@@H](C)[C@@H]2CC[C@H](c4cc(F)c(Cl)cc4C(F)(F)F)O2)C3=O)cn1 |  | human, CSF | 200 mg once daily, 14 days, multiple dose, single LP | reference: placebo | CSF Aβ38 increase | 46.5%
CN[C@@H]1COc2c(S(=O)(=O)NC(=O)Nc3c4c(cc5c3CCC5)CCC4)cnn2C1 | refers to: IL-1β | human participants, whole blood ex vivo | 900 mg twice daily, multiple doses, 24 h, together with: LPS/ATP | reference: baseline | inhibition | 99.4%
Cc1cccc(N(O)N=Nc2ccc(S(=O)(=O)Nc3onc(C)c3C)cc2)c1 | carrageenan-induced paw edema | Wistar rat | oral, 100 mg/kg, 3 h after carrageenan, together with: carrageenan 1% subplantar | higher = more edema | paw edema volume | 5.31 ± 0.51 a.u.
CN(C)C(=O)c1cc2cnc(Nc3ccc(N4CCNCC4)cn3)nc2n1C1CCCC1 | RNA-seq GSEA, refers to: HALLMARK_MYOGENESIS | MB002 tumour | concentration not given, in vivo | reference: vehicle, direction not given | GSEA enrichment score | -0.491
CCCCC1(CCCC)CN(c2ccccc2)c2cc(SC)c(OCC(=O)N[C@@H](C(=O)NCC(=O)O)c3ccccc3)cc2S(=O)(=O)C1 | refers to: 7α-hydroxy-4-cholesten-3-one | human, plasma | 15 mg once daily, day 14 |  | plasma C4 | 75.9 ng/mL
Cc1c(C(=O)O)ccc2c3n(nc12)[C@@H]1[C@H](C3)N(CC2CC2)[C@@]2(C(=O)Nc3cc(Cl)ccc32)[C@H]1c1cccc(Cl)c1F | ELISA | human cancer patients, serum | 45 mg |  | time to peak serum GDF15 | 48 h
O=C(O)CNC(=O)Cc1ccccc1 |  | ventricular cardiomyocytes, C57BL/6 mouse | dose not given, 0.672 s |  | sarcomere length | 1.72 µm
Cn1cc([C@H]2C[C@H]3CSC(N)=N[C@@]3(c3ccc(F)cc3F)CO2)cn1 | refers to: Aβx-42 | Mus musculus wild-type, brain | subcutaneous, 10 mg/kg, 13 h |  | Aβ42 level | 0.59 ng/g
CCCN(O)N=Nc1ccc(S(=O)(=O)Nc2nccs2)cc1 | carrageenan-induced paw edema | Wistar rat | oral, 100 mg/kg, 0 h (baseline), together with: carrageenan 1% subplantar | higher = more edema | paw edema volume | 3.6 ± 0.8 a.u.
COc1ccccc1[C@H](Cn1c(=O)n(C(C)(C)C(=O)O)c(=O)c2c(C)c(-c3ncco3)sc21)OC1CCOCC1 |  | human | 200 mg, post-treatment |  | serum adiponectin | 6.23 ± 1.81 µg/mL
Cc1noc(NS(=O)(=O)c2ccc(N=NN(C)O)cc2)c1C | carrageenan-induced paw edema | Wistar rat | oral, 100 mg/kg, 0 h (baseline), together with: carrageenan 1% subplantar | higher = more edema | paw edema volume | 3.63 ± 0.12 a.u.
CC#CC(=O)N[C@H]1CCCN(c2c(F)cc(C(N)=O)c3[nH]c(C)c(C)c23)C1 | refers to: IgM | human | 3 mg once daily, day 21 | reference: baseline | serum immunoglobulin | -4.6 % change
CCCNc1nc(Nc2ccc(C#N)cc2)ncc1C#CCCCNC(=O)[C@H](C)N(C)C(=O)/C=C/CN(C)C |  | human | oral, 75 mg twice daily, after cycle one |  | marrow blasts | 10%
Cc1cc(NS(=O)(=O)c2ccc(N=NN(O)c3ccccc3)cc2)no1 | carrageenan-induced paw edema | Wistar rat | oral, 100 mg/kg, 4 h after carrageenan, together with: carrageenan 1% subplantar | higher = more edema | paw edema volume | 4.21 ± 0.8 a.u.
CC(C)C[C@H](NC(=O)[C@@H](Cc1c[nH]c2ccccc12)NC(=O)[C@H](Cc1ccc(O)cc1)NC(=O)[C@H](CO)NC(=O)[C@H](Cc1c[nH]c2ccccc12)NC(=O)[C@H](Cc1c[nH]cn1)NC(=O)[C@@H]1CCC(=O)N1)C(=O)N[C@@H](CCCNC(=N)N)C(=O)N1CCC[C@H]1C(=O)NCC(N)=O | Tanner staging | Chinese girls, central precocious puberty | intramuscular, 22.5 mg day 1, month 6, month 12 | reference: baseline | stable pubic hair stage | 87.1%
OC[C@H]1O[C@@H](c2ccc(Cl)c(Cc3ccc(O[C@H]4CCOC4)cc3)c2)[C@H](O)[C@@H](O)[C@@H]1O | fasting plasma glucose, exposure-response PK/PD model | type 2 diabetes patients | dose not given, bootstrap median |  | AUC50 | 704 nM·h
Cc1n[nH]c2ccc(-c3cc(OC[C@@H](N)Cc4ccccc4)cnc3-c3ccoc3)cc12 | kinase binding, competitor, MIB/MS competition, refers to: MCK1 | Candida albicans cell lysate | 10 µM | reference: DMSO | log2 fold change | -1.02
Cc1ccc(N(O)N=Nc2ccc(S(=O)(=O)Nc3cc(C)on3)cc2)cc1 | carrageenan-induced paw edema | Wistar rat | oral, 100 mg/kg, 1 h after carrageenan, together with: carrageenan 1% subplantar | higher = more edema | paw edema volume | 6.01 ± 1.24 a.u.
NCC(=O)Nc1cncc(-c2nn3c(=O)cc(N4CCNCC4)nc3s2)c1 | ADP-induced platelet aggregation, light transmission aggregometry | stable CAD patients on aspirin | subcutaneous, 0.05 mg/kg, 24 h post-dose, together with: ADP 20 µM | reference: placebo | inhibition of platelet aggregation | -7.83%
CCCCCCCCCCCCCCCC(=O)NCCOC(=O)C[C@@H](CN)CC(C)C | mechanical withdrawal threshold | mouse paclitaxel neuropathic pain | oral, dose not given |  | time to peak efficacy | 120 min

Compound | test | system | conditions | scale | measurement | value
OC(CCN1CCCCC1)(c1ccccc1)C1CC2C=CC1C2 (stereo not drawn) | resting-state EEG | healthy elderly humans | oral, 2 mg, eyes open, LS mean |  | power, EEG, Alpha, O2-Pz | 9.9 µV²
O=C(O)C1=CC(=C(c2ccc(O)c(C(=O)O)c2)c2ccc(O)c(C(=O)O)c2)C=CC1=O | flow cytometry | C57BL/6J mouse MC-38 tumour, tumour-infiltrating CD8+ T cells | peritumoral, dose not given, 2 cycles | reference: vehicle | SCA-1 expression | no effect
C[C@H]1C[C@H]2CSC(N)=N[C@@]2(c2nc(NC(=O)c3ccc(OC(F)F)cn3)cs2)CO1 | refers to: Aβ1-40 | healthy adults, plasma | 40 mg single dose, 4 h post-dose | reference: placebo | percent change from baseline | -52.9%
O=C(OC(C(F)(F)F)C(F)(F)F)N1CCN(Cc2cccc(Oc3ccccc3)c2)CC1 | PET blocking study | rhesus monkey, brain CB | 0.1 mg/kg, compound pretreatment, together with: [18F]T-401 tracer |  | k4 | 0.145 min⁻¹
CCN(O)N=Nc1ccc(S(=O)(=O)Nc2cc(C)on2)cc1 | carrageenan-induced paw edema | Wistar rat | oral, 100 mg/kg, 3 h after carrageenan, together with: carrageenan 1% subplantar | higher = more edema | paw edema volume | 4.57 ± 0.52 a.u.
N#Cc1ccc2c(-c3ccncc3)c(-c3ccc(F)cc3)nn2c1 | kinase binding, competitor, MIB/MS competition, refers to: SHA3 | Candida albicans cell lysate | 100 nM | reference: DMSO | log2 fold change | -0.545
Cc1cccc(N(O)N=Nc2ccc(S(=O)(=O)Nc3cc(C)on3)cc2)c1 | carrageenan-induced paw edema | Wistar rat | oral, 100 mg/kg, 3 h after carrageenan, together with: carrageenan 1% subplantar | higher = more edema | paw edema volume | 4.57 ± 0.53 a.u.
C[C@@H](NC(=O)N1C(=O)[C@H](Cc2ccnc(N)c2)[C@H]1C(=O)O)C1CCCCC1 |  | human, plasma | continuous intravenous infusion, 0.3 mg/kg/h, days 1 to 6 of 5-day infusion, median |  | time to maximum prothrombin time | 121 h
C=CCn1c(=O)c2cnc(Nc3ccc(N4CCN(C)CC4)cc3)nc2n1-c1ccc2c(n1)[C@@](O)(CC)CC2 |  | SW1463 xenograft, NCG mice | oral, 60 mg/kg days 0-11 then 80 mg/kg days 11-21, day 21, once daily |  | tumour volume difference | 994 ± 49 mm3
CC(=O)Oc1cc2c(s1)CCN(C(C(=O)C1CC1)c1ccccc1F)C2 (stereo not drawn) | platelet aggregation, light transmittance aggregometry | human, platelet-rich plasma | 30 min, IPA above 90 %, together with: TRAP 15 µM | reference: patients | patients with IPA above threshold | 0%
Cc1cc(F)cc2c(CCC(=O)N[C@@H]3C(=O)NC[C@H]3O)c(-c3ccc(F)cc3)[nH]c12 |  | mice, APOL1 G2, single copy | day 5, before treatment, together with: IFNγ plasmid injection |  | UACR | 738 µg/mg and 963 µg/mg and 2210 µg/mg and 767 µg/mg and 565 µg/mg and 1400 µg/mg
N#Cc1ccc2c(c1)[C@H]1CCCN(C(=O)c3ccc4[nH]cnc4c3)[C@H]1C2 | refers to: HDL | human | 80 mg once daily, day 28, adjusted mean | reference: placebo | change from baseline | -5.16 mg/dL
CC(C)NCC(O)c1ccc(O)c(O)c1 (stereo not drawn) |  | ventricular cardiomyocytes, C57BL/6 mouse | dose not given, 0.152 s |  | sarcomere length | 1.56 µm
Cc1ccc(C(=O)Nc2ccnc(S(N)(=O)=O)c2)c(N2CCCC(F)(F)CC2)n1 | laser speckle imaging | rhesus macaque | intravenous, dose not given, 10 min after dosing | reference: vehicle | capsaicin-induced flare area | decreased
COc1cc2cc(-c3ccc(CC(=O)Nc4cc(C(C)(C)C(F)(F)F)no4)cn3)cnc2cc1OC | RECIST v1.1 | RET-altered advanced solid tumour patients | oral, 100 mg once daily, phase I |  | stable disease as best response | 33%
Cn1cc(Nc2nccc(-c3ccc4c(c3)CN(C3COC3)CC[C@H]4NC(=O)c3cn(C(C)(C)C)nn3)n2)cn1 | refers to: NAD biosynthesis from tryptophan | splenic B cells, mice | 30 mg/kg, IgD-activated in vivo | reference: vehicle, direction not given | pathway activation z-score | 2.24
CC(C)[C@H](C(=O)Nc1ccc(C(=O)NO)cc1)c1ccccc1 | volumetric MRI | human, left internal auditory canal tumour | dose not given, 51 days |  | tumour volume | 2.1 cm³
C[C@H](Oc1ccc(Br)cc1-c1ccon1)C(=O)O | response latency | human, tibialis anterior muscle | 100 mg, 30 Hz+30 s |  | difference from placebo | 1.17%
COc1cc(F)c([C@@H]2CNC(=O)[C@H]2NC(=O)Nc2ccccc2)c(F)c1 | LV haemodynamics | rat, myocardial ischaemia-reperfusion | 1 mg/kg, 1008 h, 6 weeks post-injury |  | isovolumic relaxation time | 12 ± 2 ms
N#Cc1ccn2c(-c3ccncc3)c(-c3ccc(F)cc3)nc2c1 | kinase binding, competitor, MIB/MS competition, refers to: RIM8 | Candida albicans cell lysate | 1 µM | reference: DMSO | log2 fold change | -0.00826
NC(=O)c1cnc2[nH]ccc2c1N[C@@H]1[C@@H]2CC3C[C@H]1C[C@@](O)(C3)C2 | flow cytometry, refers to: CD8+ effector memory T cells | Japanese healthy subjects, peripheral blood | oral, 30 mg twice daily, day 4 |  | change from baseline | 0.13%
COc1ccc(C2=N[C@@H](c3ccc(Cl)cc3)[C@@H](c3ccc(Cl)cc3)N2C(=O)N2CCNC(=O)C2)c(OC(C)C)c1 | histology | Dmd C3333Y mice, tibialis anterior | dose not given |  | centrally nucleated fibres | 97% and 85% and 90% and 78% and 86%
Cc1ccc(C(=O)OCc2ccc([C@@H](CN)C(=O)Nc3ccc4cnccc4c3)cc2)c(C)c1 | tonometry | NZW rabbit, magnetic bead-induced ocular hypertension | ocular, 0.02%, 28 h |  | IOP | 33.8 mmHg
COc1nc(NCc2cn(-c3ccc(C(=O)Nc4ccc(C)cc4)cc3)nn2)nc(OC)n1 | cell viability, MTT | normal colonocytes, rat | 72 h |  | IC50 | 143 ± 2.97 nM
COc1ncnn2ccc(-c3cnc4nc(C)n(Cc5nnc([C@@H](C)F)o5)c4c3)c12 |  | Homo sapiens, relapsed or refractory AML or MDS | dose not given, all patients |  | marrow complete response as best response | 0%

Some of these lines once more:
Compound | test | system | conditions | scale | measurement | value
CC#CC(=O)N[C@H]1CCCN(c2c(F)cc(C(N)=O)c3[nH]c(C)c(C)c23)C1 | refers to: IgM | human | 3 mg once daily, day 21 | reference: baseline | serum immunoglobulin | -4.6 % change
CCCNc1nc(Nc2ccc(C#N)cc2)ncc1C#CCCCNC(=O)[C@H](C)N(C)C(=O)/C=C/CN(C)C |  | human | oral, 75 mg twice daily, after cycle one |  | marrow blasts | 10%
Cc1cc(NS(=O)(=O)c2ccc(N=NN(O)c3ccccc3)cc2)no1 | carrageenan-induced paw edema | Wistar rat | oral, 100 mg/kg, 4 h after carrageenan, together with: carrageenan 1% subplantar | higher = more edema | paw edema volume | 4.21 ± 0.8 a.u.
CC(C)C[C@H](NC(=O)[C@@H](Cc1c[nH]c2ccccc12)NC(=O)[C@H](Cc1ccc(O)cc1)NC(=O)[C@H](CO)NC(=O)[C@H](Cc1c[nH]c2ccccc12)NC(=O)[C@H](Cc1c[nH]cn1)NC(=O)[C@@H]1CCC(=O)N1)C(=O)N[C@@H](CCCNC(=N)N)C(=O)N1CCC[C@H]1C(=O)NCC(N)=O | Tanner staging | Chinese girls, central precocious puberty | intramuscular, 22.5 mg day 1, month 6, month 12 | reference: baseline | stable pubic hair stage | 87.1%
OC[C@H]1O[C@@H](c2ccc(Cl)c(Cc3ccc(O[C@H]4CCOC4)cc3)c2)[C@H](O)[C@@H](O)[C@@H]1O | fasting plasma glucose, exposure-response PK/PD model | type 2 diabetes patients | dose not given, bootstrap median |  | AUC50 | 704 nM·h
